Measurements gathered from unrelated publications.
Compare with care: the assays were run in different laboratories. Values joined by “and” are separate records of one study, mostly repeats; a detail may differ.

Nc1ncc(-c2cc(-c3cnn(CC(F)(F)F)c3)ncc2F)nc1C(=O)NC1CNCC(F)C1 (stereo not drawn) — remaining binding (AKT1; KINOMEscan; 1 µM; baseline: DMSO control): 99%
C=CC(=O)Nc1cccc(Cn2ncc3cnc(Nc4cnn(CCOC)c4)nc32)c1 — binding (human p38-beta; KINOMEscan; 100 nM; baseline: control): 98%
COC(=O)c1cc(NC2=NC(=O)C(=Cc3ccc(N(C)C)cc3)S2)ccc1OC(C)=O — fold change (MCF7; refers to: PIAS4 mRNA; 0.81 µM (IC50), 24 h; baseline: DMSO): 0.696
Cc1ccc(-c2cn(Cc3cccc(Cl)c3)c3[n+]2CCC3)cc1.[Br-] — translation activity (Trypanosoma cruzi; reporter mRNA translation, inhibitor, refers to: Renilla luciferase mRNA; cell-free extract; concentration not given, test 1; baseline: positive over negative control): 98.8% and 103%
CN1CCCNC(=O)c2cccc(c2)C(=O)NCCCN(C)CCCNc2cccc3c2C(=O)c2cccc(c2C3=O)NCCC1 — log2 fold change (SAS; RNA-Seq, refers to: SLFN11 mRNA; 1 µM, 6 h; baseline: untreated cells): -1.89
CC(C)c1ccc(N(C)c2ccc3c(c2)OCC[C@H]3CNc2cnccc2C(=O)O)cc1 — IC50 (Lu-65; cell growth or viability, ATP luminescence; 7 days): 10.6 nM
Cc1ncsc1-c1ccc(C(C)NC(=O)C2CC(O)CN2C(=O)C(NC(=O)CCCCCCCCCCN2CCCC(Nc3ncc(Cl)c(Nc4ccccc4S(=O)(=O)C(C)C)n3)C2)C(C)(C)C)cc1 (stereo not drawn) — log2 fold change (22Rv1; RNA-seq, refers to: TMCO1-AS1; concentration not given; baseline: DMSO): -2.89
COC1CN([C@H]2CC[C@H]([C@@]3(C)Oc4c(Cl)cc(C(=O)NCc5c(SC)cc(C)[nH]c5=O)c(C)c4O3)CC2)C1 — log2 fold change (RNA-seq, refers to: APBB2; human, whole blood; dose not given, 24 h; baseline: pretreatment baseline): 2.22
COc1ccc(C(=O)OC2CCN(C)CC2)cc1 — translation activity (Trypanosoma cruzi; reporter mRNA translation, inhibitor, refers to: Renilla luciferase mRNA; cell-free extract; concentration not given, test 3; baseline: positive over negative control): 103%
Cn1ncc2cc(-c3cncc(Cl)c3N3CCC4(CCNC4=O)CC3)ccc21 — log2 fold change (LS174T; gene expression, microarray, refers to: PADI1 mRNA; concentration not given, 24 h; baseline: untreated cells): 2.04
CCN(CC)CC(=O)Nc1cccc(-n2cc(-c3ccc4ccc(-c5cn(-c6cccc(NC(=O)CN(CC)CC)c6)nn5)cc4c3)nn2)c1 — fold regulation (RCC4; PCR angiogenesis array, refers to: LECT1; 5 x IC50, 2 h, normoxia; baseline: untreated): 1.02
CO[C@@H]1[C@@H](OC(N)=O)[C@@H](O)[C@H](Oc2ccc3c(O)c(NC(=O)c4ccc(O)c(CC=C(C)C)c4)c(=O)oc3c2C)OC1(C)C — colony count (HCT-116 BRCA2-/-; 50 µM, replicate 1): 27
CCOc1cncc(-c2ccc(NC(=O)C3(c4ccnc(NS(=O)(=O)C5CC5)n4)CCOCC3)nc2)n1 — IC50 (MOLP-2; cell growth or viability, ATP luminescence; 72 h): 68 nM
CNS(=O)(=O)Nc1nccc(Cc2c(C)c3ccc(Oc4ncccc4F)cc3oc2=O)c1F — IC50 (KATO3; cell viability; 7 days): 79.3 nM
COc1ccccc1-c1ccncc1C(=O)Nc1nnc(OCc2ccc(Cl)cc2)s1 — change in MMEJ frequency (U2OS EJ2-GFP; EJ2-GFP reporter, GFP+/dsRed+ ratio; 5 µM, together with: I-SceI transfection; baseline: DMSO): 18.7% and 15.8% and 7.4%

Excerpt of the above:
CO[C@@H]1[C@@H](OC(N)=O)[C@@H](O)[C@H](Oc2ccc3c(O)c(NC(=O)c4ccc(O)c(CC=C(C)C)c4)c(=O)oc3c2C)OC1(C)C — colony count (HCT-116 BRCA2-/-; 50 µM, replicate 1): 27
